Assay results collected from several papers.
Each numbered part is a random draw from the data of one study; scales do not carry over between parts.

Study 1 — method: protein-binding microarray; molecule type: double-stranded DNA, one strand shown; medium: in vitro; tested at: 250 nM; setting: 60-bp whole probe; with: salmon DNA 0.4 mg/ml; reference: random background probes; direction: higher = stronger binding
Target: Interferon regulatory factor 5, full length, phosphomimetic (IRF5, Homo sapiens, UniProt Q13568-2, residues 1-514, K96S/S451D/S453D/S456D/S462D)
For `GCCTAGCACTCATTTTTGCTTACGATGCAGTGCTAGGTCTTGATTCGCTTGACGCTGCTG`, the log fluorescence was 1.21 z-score.
The log fluorescence of `GCCTAGCACCACGATATCAGTATCGAGACGTGCTAGGTCTTGATTCGCTTGACGCTGCTG` is reported as 3.08 z-score.
With `GCCTAGCACGACGGTTTCTTTATCCTGACGTGCTAGGTCTTGATTCGCTTGACGCTGCTG` the log fluorescence was 1.05 z-score.
`GCCTAGCACTCAGTTTTTCATTTTGTACTGTGCTAGGTCTTGATTCGCTTGACGCTGCTG` has a log fluorescence of 1.54 z-score.

Study 2 — method: universal PBM; molecule type: double-stranded DNA, one strand shown; medium: in vitro; tested at: not given; direction: higher = stronger binding
Target: Sal-like protein 4, full length isoform B (SALL4, Homo sapiens, UniProt Q9UJQ4-2, residues 1-616)
Setting: 8-mer, flanks averaged, mean of replicates
Residues (chain): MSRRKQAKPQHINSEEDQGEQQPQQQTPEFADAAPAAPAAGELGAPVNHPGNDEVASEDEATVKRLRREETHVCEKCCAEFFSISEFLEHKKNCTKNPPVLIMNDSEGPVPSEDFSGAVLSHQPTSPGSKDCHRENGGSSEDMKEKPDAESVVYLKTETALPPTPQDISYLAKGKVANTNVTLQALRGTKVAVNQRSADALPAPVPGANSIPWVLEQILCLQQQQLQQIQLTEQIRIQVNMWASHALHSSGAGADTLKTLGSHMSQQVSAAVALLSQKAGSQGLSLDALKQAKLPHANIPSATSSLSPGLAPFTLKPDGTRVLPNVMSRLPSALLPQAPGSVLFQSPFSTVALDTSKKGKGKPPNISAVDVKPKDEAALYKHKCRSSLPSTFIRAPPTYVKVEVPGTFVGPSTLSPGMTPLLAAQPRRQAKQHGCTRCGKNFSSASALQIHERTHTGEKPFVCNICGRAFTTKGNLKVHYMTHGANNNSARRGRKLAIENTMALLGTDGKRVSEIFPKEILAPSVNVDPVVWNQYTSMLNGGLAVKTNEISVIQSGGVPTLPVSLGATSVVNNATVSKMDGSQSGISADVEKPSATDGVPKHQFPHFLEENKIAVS
The E-score of `TACCTGGA` is reported as -0.109.
`GCAGTCCC` has an E-score of -0.385.
For `AGACCGCG`, the E-score was -0.188.
`ACTTTGCG` gave an E-score of -0.14.

Study 3 — method: competition protein-binding microarray; molecule type: double-stranded DNA, one strand shown; medium: in vitro; tested at: 2 µM; with: Cbf1 competitor, 0.05 µM; direction: higher = stronger binding
Target: Phosphate system positive regulatory protein PHO4, full length, GST-tagged (PHO4, Saccharomyces cerevisiae, UniProt P07270, residues 1-312)
Setting: whole 60-bp probe, lowest competitor level
Construct (chain): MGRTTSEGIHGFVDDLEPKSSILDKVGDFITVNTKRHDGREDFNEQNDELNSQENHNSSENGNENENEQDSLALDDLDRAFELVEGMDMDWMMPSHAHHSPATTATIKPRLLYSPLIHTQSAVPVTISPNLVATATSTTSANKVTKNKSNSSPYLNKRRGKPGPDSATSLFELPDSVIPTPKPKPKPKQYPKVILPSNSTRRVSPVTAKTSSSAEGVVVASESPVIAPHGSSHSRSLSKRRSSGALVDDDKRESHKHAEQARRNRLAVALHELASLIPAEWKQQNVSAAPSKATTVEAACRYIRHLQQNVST
`AAATTACTAAGTTTTCACGTGAGATACCCCGTATGAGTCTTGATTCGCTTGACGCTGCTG` has a fluorescence intensity of 10600 a.u.
`AAATTACTAAGTTGGTTCGTGGGTGACGCCGTATGAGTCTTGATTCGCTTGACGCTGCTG` has a fluorescence intensity of 6010 a.u.
For `CTGCCTAACAGGATGCACATGTTTGTTTATTGCTGAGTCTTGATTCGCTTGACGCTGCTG`, the fluorescence intensity was 12400 a.u.
For `CTAACGAAGGTTTTTCACGTGGGGTACAAGCCAAGTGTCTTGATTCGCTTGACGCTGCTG`, the fluorescence intensity was 14400 a.u.
With `CTTTCCCGATCTTGAGTGGTGGGTGTAGCACATTTGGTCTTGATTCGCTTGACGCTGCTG` the fluorescence intensity was 4630 a.u.

Single results of other studies
`PhoQ, residues 284 288 289 292 302 303 SACGEM` has a fold induction of 3.45 (PhoP, residues 12 14 15 18 19 TPLRH (Escherichia coli, UniProt P23836); Sort-seq, measured: YFP reporter; E. coli; PhoQ-PhoP variant library, with: 10 µM Mg2+; reference: high Mg2+ state, higher = stronger signaling).

A few entries again (study 2):
For `AGACCGCG`, the E-score was -0.188.
`GCAGTCCC` has an E-score of -0.385.
